Experimental data from different studies.
A part holds a random share of what one study measured.

Series 1 — effect on: enzyme activity; mode: inhibitor; tested at: 20 µM; notes: hit confirmation; endpoint: inhibition
Target: Replicase polyprotein 1ab, main protease (rep, Severe acute respiratory syndrome coronavirus 2, UniProt P0DTD1)
SMILES = CCOC(=O)c1c(N)sc(-c2ccccc2)c1C; value = 100%
SMILES = CN1CCN2c3c(cccc31)[C@@H]1CN(CCCC(=O)c3ccc(F)cc3)CC[C@@H]12; value = 1.8%
SMILES = CC1=C(O)C(=O)[C@@H]2O[C@@H]2C1=O; value = 42%

Series 2 — method: RNAcompete; molecule type: RNA; medium: in vitro; tested at: 20 nM; notes: 7-mer, probes averaged, single round; baseline: mean of 7-mers; direction: higher = stronger binding; endpoint: 7-mer Z-score
Target: PABPC1L2, full length, GST fusion (mouse, UniProt A0ABA7IW68)
Construct (chain): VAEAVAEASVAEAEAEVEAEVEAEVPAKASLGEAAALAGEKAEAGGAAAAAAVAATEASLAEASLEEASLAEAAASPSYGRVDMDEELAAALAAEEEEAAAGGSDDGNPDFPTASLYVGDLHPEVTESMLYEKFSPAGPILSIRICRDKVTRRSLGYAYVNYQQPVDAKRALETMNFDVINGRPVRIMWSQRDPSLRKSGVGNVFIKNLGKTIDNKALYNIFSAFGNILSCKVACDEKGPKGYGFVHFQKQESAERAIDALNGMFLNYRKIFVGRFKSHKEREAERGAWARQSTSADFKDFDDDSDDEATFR
Oligonucleotide = UCUCUAC; value = -0.307
Oligonucleotide = CUAAAGG; value = 0.238
Oligonucleotide = UGGCAUG; value = 0.017
Oligonucleotide = GGUCCGU; value = -0.104
Oligonucleotide = GUAGACA; value = 0.193
Oligonucleotide = CUGUAUG; value = -0.262
Oligonucleotide = GUCCUUA; value = -0.353
Oligonucleotide = CUUGCUU; value = -0.44

Series 3 — mode: inhibitor; tested at: 20 µM; endpoint: inhibition
Target: Replicase polyprotein 1ab, nsp13 helicase (rep, Severe acute respiratory syndrome coronavirus 2, UniProt P0DTD1)
Structure (SMILES) = CCC1=C[C@@H]2CN3CCc4c([nH]c5ccccc45)[C@@](C(=O)OC)(C2)[C@@H]13; value = 5.21%
Structure (SMILES) = Cn1cncc1[C@@](N)(c1ccc(Cl)cc1)c1ccc2c(c1)c(-c1cccc(Cl)c1)cc(=O)n2C; value = 6.83%
Structure (SMILES) = N[C@@H]1CCCN(c2c(/C=C3\SC(=O)NC3=O)cccc2-c2ccccc2)C1; value = 12.6%
Structure (SMILES) = C[C@H](c1ccc2ccc(O[C@H]3CC[C@@H](C(F)(F)F)CC3)c(C(F)(F)F)c2c1)N1C2CCC1CC(C(=O)O)C2 (some centres unmarked); value = 4.3%
Structure (SMILES) = Cc1[nH]c2ccc(O)cc2c1CCN; value = -3.48%
Structure (SMILES) = CCCCCCN(CCCCCC)C(=O)Cc1c(-c2ccc(F)cc2)[nH]c2ccccc12; value = -2.57%
Structure (SMILES) = COc1c(OCCCN2CCOCC2)ccc2c1N=C(NC(=O)c1cnc(N)nc1)N1CCN=C21; value = 7.7%
Structure (SMILES) = COc1cc([C@@H]2c3cc4c(cc3[C@@H](O[C@@H]3O[C@@H]5CO[C@@H](c6cccs6)O[C@H]5[C@H](O)[C@H]3O)[C@H]3COC(=O)[C@H]23)OCO4)cc(OC)c1O; value = -0.24%
Structure (SMILES) = O=C(NNc1ccccc1)c1ccncc1; value = 7.01%
Structure (SMILES) = CNC(=S)C1(c2ccccn2)CCCS1 (centres unmarked); value = 1.24%
Structure (SMILES) = CCOC(=O)CN1CCN(C(=O)/C=C/c2cc(OC)c(OC)c(OC)c2)CC1; value = 4.43%
Structure (SMILES) = Cc1ccccc1/N=N/c1ccc(/N=N/c2c(O)ccc3ccccc23)c(C)c1; value = 6.3%
Structure (SMILES) = N#CC(C#N)=Cc1ccc(O)c(O)c1; value = -1.71%
Structure (SMILES) = Cc1cccc(-c2nn3c(c2-c2ccnc4ccc(C(N)=O)cc24)CCC3)n1; value = 1.9%
Structure (SMILES) = CCOc1nc2cccc(C(=O)O)c2n1Cc1ccc(-c2ccccc2-c2nnn[nH]2)cc1; value = 3.17%
Structure (SMILES) = O=C(/C=C\n1cnc(-c2cc(C(F)(F)F)cc(C(F)(F)F)c2)n1)NNc1cnccn1; value = 1.59%
Structure (SMILES) = Cn1c(Nc2ccc(C(F)(F)F)cc2)nc2cc(Oc3ccnc(-c4ncc(C(F)(F)F)[nH]4)c3)ccc21; value = 2.14%
Structure (SMILES) = Nc1nc(Cl)nc2c1ncn2[C@@H]1O[C@H](CO)[C@@H](O)[C@H]1O; value = 0.39%
Structure (SMILES) = O=c1ccc2c(OCCCCOc3ccccc3)c3ccoc3cc2o1; value = 4.54%
Structure (SMILES) = Cc1ccc(-c2nc3ccc(C)cn3c2CC(=O)N(C)C)cc1; value = -5.87%
Structure (SMILES) = O=C(O)C1=CCCN(CCON=C(c2ccccc2)c2ccccc2)C1; value = 6.96%

Series 4 — organism: Vesicular stomatitis virus; effect on: pseudovirus infection; method: FDA-approved drug library screen; tested at: concentration not given; notes: SARS-CoV-2 spike pseudotype; baseline: vehicle; endpoint: GFP-positive cells
SMILES = S=c1nc[nH]c2nc[nH]c12; value = 91.6%
SMILES = COCCCOc1ccnc(CSc2nc3ccccc3[nH]2)c1C; value = 96.9%
SMILES = CN(C)[C@@H]1C(=O)C(C(N)=O)=C(O)[C@@]2(O)C(=O)C3=C(O)c4c(O)cccc4[C@@](C)(O)[C@H]3[C@H](O)[C@@H]12; value = 82.8%
SMILES = CNC(=C[N+](=O)[O-])NCCSCc1ccc(CN(C)C)o1; value = 82.5%

Series 5 — method: RNA Bind-n-Seq; molecule type: RNA; medium: in vitro; tested at: 1 µM; notes: whole 134-nt RNA, ends assumed; together with: 150 mM KCl; baseline: input library; direction: higher = stronger binding; endpoint: log2 enrichment
Target: Ras GTPase-activating protein-binding protein 1, C-terminal RGG region (G3BP1, Homo sapiens, UniProt Q13283)
Sequence of UniProt Q13283 (whole entry, looked up): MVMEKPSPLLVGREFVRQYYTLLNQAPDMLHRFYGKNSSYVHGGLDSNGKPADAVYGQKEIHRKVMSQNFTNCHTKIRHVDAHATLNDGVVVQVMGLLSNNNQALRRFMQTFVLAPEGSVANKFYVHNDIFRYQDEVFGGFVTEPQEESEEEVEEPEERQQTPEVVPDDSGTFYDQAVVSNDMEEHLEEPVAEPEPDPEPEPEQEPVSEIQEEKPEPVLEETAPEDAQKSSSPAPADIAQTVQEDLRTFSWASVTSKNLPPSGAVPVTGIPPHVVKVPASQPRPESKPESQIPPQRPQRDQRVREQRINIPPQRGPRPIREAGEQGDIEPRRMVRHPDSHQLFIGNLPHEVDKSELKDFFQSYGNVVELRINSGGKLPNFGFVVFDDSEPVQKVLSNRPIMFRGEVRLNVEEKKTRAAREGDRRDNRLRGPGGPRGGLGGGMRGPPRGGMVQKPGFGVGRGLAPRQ
Oligonucleotide = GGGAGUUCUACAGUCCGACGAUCCCUCAAGUCCUGUGCUACACAUCGUAUGUACCGAAUCGGCGGGGCGGGCGGGAAAGUAUUAUGUUACGCCGUUCGGAUCUGCACUUCCAGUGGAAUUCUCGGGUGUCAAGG; value = 0.96
Oligonucleotide = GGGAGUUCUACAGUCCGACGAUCUGGCCCCGGUGGCAUGCGGGGAGGAAGAGGUGGCCUCAUGGAUCGUGGUGGUCCCGGUGGAAUGUUCAGAGGUGGCCGUGGUGGAGACAGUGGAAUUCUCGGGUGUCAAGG; value = 2.17
Oligonucleotide = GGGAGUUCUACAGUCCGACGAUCUCAAGUCCUGUGCUACACAUCGUAUGUACCGAAUCGGGUUGGGGUUGGGGUUGGGAAAGUAUUAUGUUACGCCGUUCGGAUCUGCACUUCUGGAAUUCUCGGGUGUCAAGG; value = 2.52
Oligonucleotide = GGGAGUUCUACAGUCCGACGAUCCAAGCCAAGGAAAUGGUGUUAGAGUUAAUUCGUGAUCAAGGCGGUUUCAGAGAAGUUCGGAAUGAGUAUGGGUCAAGAAUAGGAGGAAAUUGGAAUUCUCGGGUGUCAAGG; value = -2.15
Oligonucleotide = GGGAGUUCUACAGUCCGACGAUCAAGUCCUGUGCUACACAUCGUAUGUACCGAAUCGGGGCCCCGGCCCCGGGCCCCGGGAAAGUAUUAUGUUACGCCGUUCGGAUCUGCACUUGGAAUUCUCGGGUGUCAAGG; value = -2.07
Oligonucleotide = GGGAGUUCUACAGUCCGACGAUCUGGGAGGUGGAUUUUGUUUAGUUUUUUAGCUCAUUUCCAGGGGUGGGAAUUUUUUUUUAAUAUGUGUCAUGAAUAAAGUUGUUUUUGAAAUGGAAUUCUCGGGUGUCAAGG; value = 1.89
Oligonucleotide = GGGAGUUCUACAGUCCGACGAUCAAGUCCUGUGCUACACAUCGUAUGUACCGAAUCGGGUUUGGGGUUUGGGUUUGGGGAAAGUAUUAUGUUACGCCGUUCGGAUCUGCACUUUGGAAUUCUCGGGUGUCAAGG; value = 1.88
Oligonucleotide = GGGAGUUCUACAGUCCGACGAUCUUGGGUCCAGACUGCGCCACAGCCUCUCGGGAGACGUGGGCCCUCGGAACCUUUUUAGUGCCGGACUCCGGGCCGCAGGCAGUCCCGCGGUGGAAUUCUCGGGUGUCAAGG; value = -2.33

For quick reference, copied from above (series 3):
Structure (SMILES) = Cc1ccc(-c2nc3ccc(C)cn3c2CC(=O)N(C)C)cc1; value = -5.87%
Structure (SMILES) = O=C(O)C1=CCCN(CCON=C(c2ccccc2)c2ccccc2)C1; value = 6.96%
